Published values pooled from the literature.
A part holds a random share of what one study measured.
UniProt Q6P2M8, sequence (whole entry, looked up): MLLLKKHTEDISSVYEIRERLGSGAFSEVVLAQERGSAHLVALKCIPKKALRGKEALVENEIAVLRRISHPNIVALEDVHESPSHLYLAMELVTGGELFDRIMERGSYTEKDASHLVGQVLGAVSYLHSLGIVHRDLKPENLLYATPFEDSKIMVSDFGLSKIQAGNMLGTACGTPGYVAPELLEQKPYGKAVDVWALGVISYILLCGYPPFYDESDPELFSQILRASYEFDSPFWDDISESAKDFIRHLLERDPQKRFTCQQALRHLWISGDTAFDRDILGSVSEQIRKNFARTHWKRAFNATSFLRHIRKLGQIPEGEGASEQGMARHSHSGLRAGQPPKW
UniProt Q96NX5, sequence (whole entry, looked up): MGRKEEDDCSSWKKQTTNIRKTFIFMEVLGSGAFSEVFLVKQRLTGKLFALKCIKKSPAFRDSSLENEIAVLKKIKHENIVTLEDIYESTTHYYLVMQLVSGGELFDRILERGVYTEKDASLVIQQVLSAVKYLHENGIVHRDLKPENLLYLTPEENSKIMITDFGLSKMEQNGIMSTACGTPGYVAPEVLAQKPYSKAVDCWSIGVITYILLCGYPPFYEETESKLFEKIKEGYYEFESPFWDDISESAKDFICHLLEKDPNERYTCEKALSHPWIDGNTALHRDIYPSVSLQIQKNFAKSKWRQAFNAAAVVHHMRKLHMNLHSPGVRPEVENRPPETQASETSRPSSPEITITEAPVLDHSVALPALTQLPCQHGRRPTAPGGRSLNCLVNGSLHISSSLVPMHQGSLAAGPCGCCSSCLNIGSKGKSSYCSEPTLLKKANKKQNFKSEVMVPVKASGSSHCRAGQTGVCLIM
UniProt O14578, sequence (whole entry, looked up): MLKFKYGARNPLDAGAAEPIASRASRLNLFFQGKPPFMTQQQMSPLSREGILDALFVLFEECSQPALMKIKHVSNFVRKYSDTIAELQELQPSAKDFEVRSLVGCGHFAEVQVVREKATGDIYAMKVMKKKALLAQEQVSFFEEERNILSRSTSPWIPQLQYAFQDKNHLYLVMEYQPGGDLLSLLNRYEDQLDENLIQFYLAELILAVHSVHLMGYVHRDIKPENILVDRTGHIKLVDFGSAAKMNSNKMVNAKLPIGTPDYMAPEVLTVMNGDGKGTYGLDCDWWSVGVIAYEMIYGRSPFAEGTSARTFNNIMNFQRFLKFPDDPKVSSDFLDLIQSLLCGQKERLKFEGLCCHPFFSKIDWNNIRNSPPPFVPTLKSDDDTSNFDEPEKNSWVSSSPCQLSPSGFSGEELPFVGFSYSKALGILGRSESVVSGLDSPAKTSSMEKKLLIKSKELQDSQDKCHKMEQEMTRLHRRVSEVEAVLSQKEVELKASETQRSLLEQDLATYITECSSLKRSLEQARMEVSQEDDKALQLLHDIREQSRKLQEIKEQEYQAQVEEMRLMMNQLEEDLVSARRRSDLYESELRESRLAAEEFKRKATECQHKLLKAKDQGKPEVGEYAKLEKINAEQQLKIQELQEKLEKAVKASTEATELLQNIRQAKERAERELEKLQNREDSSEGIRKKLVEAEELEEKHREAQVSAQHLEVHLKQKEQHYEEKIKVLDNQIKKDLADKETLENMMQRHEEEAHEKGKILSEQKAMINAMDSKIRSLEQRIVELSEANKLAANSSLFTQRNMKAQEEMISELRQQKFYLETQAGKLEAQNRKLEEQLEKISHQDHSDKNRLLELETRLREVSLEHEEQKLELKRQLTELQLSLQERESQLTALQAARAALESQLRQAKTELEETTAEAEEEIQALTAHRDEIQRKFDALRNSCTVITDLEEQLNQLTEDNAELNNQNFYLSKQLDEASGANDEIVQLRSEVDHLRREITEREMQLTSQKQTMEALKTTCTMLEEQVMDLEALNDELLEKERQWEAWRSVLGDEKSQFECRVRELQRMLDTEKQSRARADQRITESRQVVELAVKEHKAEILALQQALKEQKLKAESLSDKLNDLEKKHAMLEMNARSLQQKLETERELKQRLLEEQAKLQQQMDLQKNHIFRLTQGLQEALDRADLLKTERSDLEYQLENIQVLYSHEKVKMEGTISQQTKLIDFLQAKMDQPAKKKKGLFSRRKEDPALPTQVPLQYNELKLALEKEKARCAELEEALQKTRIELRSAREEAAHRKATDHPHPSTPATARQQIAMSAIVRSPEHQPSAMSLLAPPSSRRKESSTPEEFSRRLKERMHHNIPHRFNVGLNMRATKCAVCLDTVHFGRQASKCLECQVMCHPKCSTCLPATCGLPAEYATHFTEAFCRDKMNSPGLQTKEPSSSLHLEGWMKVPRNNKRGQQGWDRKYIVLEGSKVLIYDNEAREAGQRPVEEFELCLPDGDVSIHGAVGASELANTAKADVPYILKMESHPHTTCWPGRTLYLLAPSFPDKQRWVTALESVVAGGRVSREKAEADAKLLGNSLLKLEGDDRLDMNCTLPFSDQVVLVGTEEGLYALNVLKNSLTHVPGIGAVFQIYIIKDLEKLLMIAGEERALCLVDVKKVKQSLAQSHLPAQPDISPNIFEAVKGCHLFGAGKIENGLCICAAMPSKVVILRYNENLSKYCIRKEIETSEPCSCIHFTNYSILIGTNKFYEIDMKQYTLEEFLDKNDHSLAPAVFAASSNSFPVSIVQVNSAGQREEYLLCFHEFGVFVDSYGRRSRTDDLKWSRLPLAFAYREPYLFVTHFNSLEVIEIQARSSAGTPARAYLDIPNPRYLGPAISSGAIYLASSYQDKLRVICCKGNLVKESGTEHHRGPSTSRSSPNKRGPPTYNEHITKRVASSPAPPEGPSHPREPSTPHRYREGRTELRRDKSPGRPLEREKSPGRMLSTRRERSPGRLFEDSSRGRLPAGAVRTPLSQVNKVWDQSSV
UniProt Q05397, sequence (whole entry, looked up): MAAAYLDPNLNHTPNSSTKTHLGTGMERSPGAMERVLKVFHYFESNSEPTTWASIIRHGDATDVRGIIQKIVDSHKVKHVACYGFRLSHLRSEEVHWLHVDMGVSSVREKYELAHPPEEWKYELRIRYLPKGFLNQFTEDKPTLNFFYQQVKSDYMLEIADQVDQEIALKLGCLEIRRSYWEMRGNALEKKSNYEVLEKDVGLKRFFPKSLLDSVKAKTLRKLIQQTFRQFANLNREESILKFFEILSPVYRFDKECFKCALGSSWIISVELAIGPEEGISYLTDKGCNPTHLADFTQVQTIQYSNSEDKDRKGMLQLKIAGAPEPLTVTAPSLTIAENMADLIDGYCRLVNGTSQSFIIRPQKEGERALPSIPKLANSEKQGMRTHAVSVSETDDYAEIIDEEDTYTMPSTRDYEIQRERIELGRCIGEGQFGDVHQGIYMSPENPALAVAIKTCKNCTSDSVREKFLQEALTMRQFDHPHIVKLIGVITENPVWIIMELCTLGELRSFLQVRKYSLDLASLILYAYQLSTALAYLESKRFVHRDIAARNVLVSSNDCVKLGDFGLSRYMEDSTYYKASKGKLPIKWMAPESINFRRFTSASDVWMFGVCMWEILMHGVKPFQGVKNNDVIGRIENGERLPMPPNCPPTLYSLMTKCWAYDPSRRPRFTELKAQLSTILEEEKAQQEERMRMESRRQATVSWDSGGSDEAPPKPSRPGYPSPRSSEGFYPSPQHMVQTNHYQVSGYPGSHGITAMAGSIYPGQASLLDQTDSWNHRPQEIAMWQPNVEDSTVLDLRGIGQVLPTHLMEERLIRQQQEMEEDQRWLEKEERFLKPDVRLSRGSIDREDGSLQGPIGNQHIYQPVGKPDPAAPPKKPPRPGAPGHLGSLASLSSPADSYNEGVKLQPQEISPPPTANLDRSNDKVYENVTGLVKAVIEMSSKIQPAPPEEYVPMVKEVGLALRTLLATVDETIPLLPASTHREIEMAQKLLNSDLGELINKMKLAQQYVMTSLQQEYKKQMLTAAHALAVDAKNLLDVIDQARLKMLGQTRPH
UniProt Q9UPE1, sequence (whole entry, looked up): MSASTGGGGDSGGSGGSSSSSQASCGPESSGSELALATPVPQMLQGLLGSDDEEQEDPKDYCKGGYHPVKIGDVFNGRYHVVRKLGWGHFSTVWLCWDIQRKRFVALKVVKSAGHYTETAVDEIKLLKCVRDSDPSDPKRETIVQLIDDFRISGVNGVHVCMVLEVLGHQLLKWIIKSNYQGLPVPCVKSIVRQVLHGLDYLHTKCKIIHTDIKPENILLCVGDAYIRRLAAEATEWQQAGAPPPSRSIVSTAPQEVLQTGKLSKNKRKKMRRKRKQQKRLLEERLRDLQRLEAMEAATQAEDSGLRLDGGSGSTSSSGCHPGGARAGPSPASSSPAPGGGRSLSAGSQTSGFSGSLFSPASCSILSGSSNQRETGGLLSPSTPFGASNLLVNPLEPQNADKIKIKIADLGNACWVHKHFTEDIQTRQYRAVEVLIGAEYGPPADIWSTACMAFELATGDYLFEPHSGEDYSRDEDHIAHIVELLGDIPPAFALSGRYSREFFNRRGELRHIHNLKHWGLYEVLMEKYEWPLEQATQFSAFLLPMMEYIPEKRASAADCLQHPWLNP
UniProt Q9H3Y6, sequence (whole entry, looked up): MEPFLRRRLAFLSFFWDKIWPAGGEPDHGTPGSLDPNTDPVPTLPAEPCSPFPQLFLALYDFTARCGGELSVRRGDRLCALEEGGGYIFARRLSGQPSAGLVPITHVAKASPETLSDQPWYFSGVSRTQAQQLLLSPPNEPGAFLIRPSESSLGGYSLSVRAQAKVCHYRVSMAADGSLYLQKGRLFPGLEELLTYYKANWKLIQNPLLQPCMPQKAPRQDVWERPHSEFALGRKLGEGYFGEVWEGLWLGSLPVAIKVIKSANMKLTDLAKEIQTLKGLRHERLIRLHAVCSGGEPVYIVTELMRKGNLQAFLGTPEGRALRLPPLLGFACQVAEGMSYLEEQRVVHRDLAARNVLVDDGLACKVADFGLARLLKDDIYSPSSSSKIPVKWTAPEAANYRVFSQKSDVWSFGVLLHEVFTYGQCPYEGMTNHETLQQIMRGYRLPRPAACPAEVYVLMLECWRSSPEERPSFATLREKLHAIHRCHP

Series 1 — technique: universal PBM; form: double-stranded DNA, one strand shown; medium: in vitro; tested at: not given; direction: higher = stronger binding
Target: Sal-like protein 4, full length isoform B (SALL4, Homo sapiens, UniProt Q9UJQ4-2, residues 1-616)
Notes: 8-mer, flanks averaged, mean of replicates
The E-score of `AAGGCCCT` is reported as -0.0982.
The E-score of `GCCGTGGA` is reported as -0.219.
`ATGGCACC` has an E-score of -0.13.
The E-score of `GGCCATAA` is reported as 0.0833.
`AGTCCGAG` gave an E-score of -0.255.
With `AGTGCCAC` the E-score was -0.157.
For `ACCCTCGG`, the E-score was -0.216.
`ACTACTGC` gave an E-score of -0.0533.

Series 2 — effect on: enzyme activity; mode: inhibitor; tested at: 0.5 µM; reference: control
Target: Aurora kinase A (AURKA, Homo sapiens, UniProt O14965)
Residues (O14965 1-403): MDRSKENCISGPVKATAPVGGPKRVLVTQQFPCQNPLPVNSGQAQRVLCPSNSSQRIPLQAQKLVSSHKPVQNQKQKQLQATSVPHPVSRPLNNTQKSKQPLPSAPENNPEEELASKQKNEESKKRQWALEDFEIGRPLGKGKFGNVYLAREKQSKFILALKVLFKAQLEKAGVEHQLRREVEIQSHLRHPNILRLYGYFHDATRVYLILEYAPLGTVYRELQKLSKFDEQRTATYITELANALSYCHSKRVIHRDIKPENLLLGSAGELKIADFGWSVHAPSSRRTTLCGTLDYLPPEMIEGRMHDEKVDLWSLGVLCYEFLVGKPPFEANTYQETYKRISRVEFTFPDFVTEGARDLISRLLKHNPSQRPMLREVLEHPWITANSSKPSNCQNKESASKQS
`COc1ccc(CNC(=O)Nc2ncc([N+](=O)[O-])s2)cc1` has a remaining activity of 97.4%.
The remaining activity of `O=C1NC(=O)C(c2cn(CCCO)c3ncccc23)=C1c1cnccn1` is reported as 107%.
For `Cc1ccc(Nc2nccc(N(C)c3ccc4c(C)n(C)nc4c3)n2)cc1S(N)(=O)=O`, the remaining activity was 38.4%.
For `CC(C)[C@H](CO)Nc1nc(Nc2cc(N)cc(Cl)c2)c2ncn(C(C)C)c2n1`, the remaining activity was 80.5%.
`CNC(=O)c1cc(Oc2ccc(NC(=O)Nc3ccc(Cl)c(C(F)(F)F)c3)cc2)ccn1` has a remaining activity of 103%.
`O=S(=O)(c1cccc2cnccc12)N1CCCNCC1` has a remaining activity of 101%.
With `COc1ccc(OC)c2c(=S)c3ccccc3[nH]c12` the remaining activity was 116%.
With `Cc1cccc(-c2[nH]c(C(C)(C)C)nc2-c2ccc3c(c2)OCO3)n1` the remaining activity was 93.4%.
`NCCNc1ncc(C(N)=O)c(Nc2cccc(C(F)(F)F)c2)n1` has a remaining activity of 92.8%.
For `Nc1ncnc2n[nH]c(Nc3ccc(F)cc3)c12`, the remaining activity was 92.3%.
`COc1cc2nccc(Oc3ccc(NC(=S)NC(=O)c4ccccc4C)cc3)c2cc1OC` has a remaining activity of 18.9%.
For `Cc1ccc(NC(=O)c2ccc(CN3CCN(C)CC3)cc2)cc1Nc1nc(-c2cccnc2)cs1`, the remaining activity was 105%.
With `COc1ccc(C(=O)Nc2sc3c(c2C(N)=O)CCCC3)cc1OC` the remaining activity was 97.9%.
For `CN(C)c1ccc(C=C2C(=O)Nc3ccccc32)cc1`, the remaining activity was 104%.
With `O=C(O)c1ccc2c3c1cccc3c(=O)n1c3ccccc3nc21` the remaining activity was 78.6%.
The remaining activity of `Nc1ccc2ncnc(NCCc3ccc(Oc4ccccc4)cc3)c2c1` is reported as 105%.

Series 3 — technique: aptamer microarray, sandwich; form: DNA with 2'F-ANA; medium: in vitro; tested at: 200 nM; with: Cy3 exosite-II aptamer, 400 nM; direction: higher = stronger binding; sequence: GGTTGGTGTGGTTGG
Target: Prothrombin, mature alpha-thrombin (F2, Homo sapiens, UniProt P00734)
Notes: whole 15-mer aptamer, many near background
Under “mean fluorescence intensity”, `2'F-ANA at 1 2 3 4 5 6 7 9 10 12 14` is recorded as 50.8 a.u.
`2'F-ANA at 1 2 3 7 8 9 10 12 14`: “mean fluorescence intensity” 60.2 a.u.
`2'F-ANA at 1 5 6 8 9 11 12 13 15` — result for “mean fluorescence intensity”: 75 a.u.
`2'F-ANA at 3 5 7 8 9 14 15`: “mean fluorescence intensity” 58.5 a.u.
For `2'F-ANA at 1 4 5 6 9 11 13 14`, “mean fluorescence intensity” read 51.5 a.u.
`2'F-ANA at 1 5 6 7 8 10 12 13 14` — result for “mean fluorescence intensity”: 50.1 a.u.
For `2'F-ANA at 1 2 3 6 8 14 15`, “mean fluorescence intensity” read 76.3 a.u.
`2'F-ANA at 2 8 11 13`: “mean fluorescence intensity” 413 a.u.

Series 4 — tested at: 0.1 µM
SMILES: CS(=O)(=O)N1CCCC(NC(=O)[C@H](CCC2CCCCC2)NC(=O)c2ccc(CNc3ncnc4c3nnn4-c3ccccc3)cc2)C1 (stereo partly shown)
PTK2 (Homo sapiens, UniProt Q05397); cell-free assay, competition with immobilised ligand — remaining binding: 100%.
It gave 92% for remaining binding (CAMK1G (Homo sapiens, UniProt Q96NX5); cell-free assay, competition with immobilised ligand).
It gave 95% for remaining binding (Tyrosine-protein kinase ABL1, phosphorylated (ABL1, Homo sapiens, UniProt P00519, F317I); binding).
CIT (Homo sapiens, UniProt O14578); cell-free assay, competition with immobilised ligand — remaining binding: 98%.
The remaining binding was 98% (SRMS (Homo sapiens, UniProt Q9H3Y6); cell-free assay, competition with immobilised ligand).
PNCK (Homo sapiens, UniProt Q6P2M8); cell-free assay, competition with immobilised ligand — remaining binding: 100%.
CASK (Homo sapiens, UniProt O14936); cell-free assay, competition with immobilised ligand — remaining binding: 100%.
It gave 100% for remaining binding (SRPK3 (Homo sapiens, UniProt Q9UPE1); cell-free assay, competition with immobilised ligand).
